Experimental data gathered from unrelated publications.
Each numbered part is a random draw from the data of one study; scales do not carry over between parts.

Study 1
Target: Interferon regulatory factor 5, full length, phosphomimetic (IRF5, Homo sapiens, UniProt Q13568-2, residues 1-514, K96S/S451D/S453D/S456D/S462D)
Technique: protein-binding microarray
Form: double-stranded DNA, one strand shown
Sample: in vitro
Tested at: 250 nM
Notes: 60-bp whole probe
With: salmon DNA 0.4 mg/ml
Relative to: random background probes
Reading: higher = stronger binding
Constant ends, left off below: GCCTAGCAC … GTCTTGATTCGCTTGACGCTGCTG
Strand	log fluorescence [z-score]
TCATAGCTTCCTTTCGCACTGTGCTAG	1.93
TCATTCCTGAAATCTCTTACTGTGCTA	0.914
AAGGTTACCCATCTCAAGTAGTGCTAG	-0.0755
TACGGTCTCGGTATCGGGACGTGCTAG	1.26
GACGAACTGAGACTGCAGACGTGCTAG	-0.38

Study 2
Target: Ras GTPase-activating protein-binding protein 1, full length (G3BP1, Homo sapiens, UniProt Q13283)
Sequence of UniProt Q13283 (whole entry, looked up): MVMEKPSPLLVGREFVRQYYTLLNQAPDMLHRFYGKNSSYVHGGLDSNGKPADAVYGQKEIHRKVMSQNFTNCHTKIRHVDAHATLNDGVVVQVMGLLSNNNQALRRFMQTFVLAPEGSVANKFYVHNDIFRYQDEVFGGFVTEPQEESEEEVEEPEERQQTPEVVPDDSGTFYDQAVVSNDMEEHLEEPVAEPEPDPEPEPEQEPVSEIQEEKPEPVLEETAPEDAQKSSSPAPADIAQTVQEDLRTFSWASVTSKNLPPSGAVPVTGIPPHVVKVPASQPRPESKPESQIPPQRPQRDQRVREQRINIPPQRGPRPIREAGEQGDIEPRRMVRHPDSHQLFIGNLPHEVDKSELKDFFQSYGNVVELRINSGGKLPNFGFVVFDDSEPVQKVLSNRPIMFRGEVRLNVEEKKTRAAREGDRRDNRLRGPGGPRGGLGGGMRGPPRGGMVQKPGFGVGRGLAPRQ
Technique: RNA Bind-n-Seq
Form: RNA
Sample: in vitro
Tested at: 200 nM
Notes: whole 134-nt RNA, ends assumed
With: 150 mM LiCl
Relative to: input library
Reading: higher = stronger binding
All molecules: 7-deaza-guanosine replaces G
Constant ends, left off below: GGGAGUUCUACAGUCCGACGAUC … UGGAAUUCUCGGGUGUCAAGG
Strand	log2 enrichment
UCCGCACACCCGGCCUGUCACCCUGCUUUCCCUGCCUCUACUUGACUUGGAAUUGGCUGAAGACUACACAGGAAUGCAUCGUUCCCACUC	-0.00677
UCCUGUGCUACACAUCGUAUGUACCGAAUCGGGGUUUUUGGGGAAAGGGGUUUUUGGGGAAAGUAUUAUGUUACGCCGUUCGGAUCUGCA	0.0864
GCAGGAAGUAAAAACAAAUGGAAAUGCUUCGGAUAGUGGCAGGGGUGGGGGUUGCUAAGAAAAGGGUGGGAUGGGAGUGGGUAAAGAGUU	0.285
UGCAGGGUCUGGGUAGCAGCUGGGCUUCCAGCUUUCUCCUUGCACCUGACUUGGGCUUUUUUCUCCUCACAGGAUGGGCCUUGACGGCAU	-1.23
CAAGUCCUGUGCUACACAUCGUAUGUACCGAAUCGGUUUUUGGUUUUUUUGGAGGAAAGUAUUAUGUUACGCCGUUCGGAUCUGCACUUC	-0.149
CUGUGCUACACAUCGUAUGUACCGAAUCGGGAAAAAAAGGGGAAAAAAAGGGGAAAAAAAGGAAAGUAUUAUGUUACGCCGUUCGGAUCU	0.338

Study 3
Target: Histone acetyltransferase KAT6A, both winged helices, GST fusion (KAT6A, Homo sapiens, UniProt Q92794, residues 1-181)
Technique: protein binding microarray
Form: double-stranded DNA, one strand shown
Sample: in vitro
Tested at: not given
Notes: 8-mer, flanks averaged, mean of 2 arrays, mostly near background
Relative to: not given
Reading: higher = stronger binding
Residues (chain): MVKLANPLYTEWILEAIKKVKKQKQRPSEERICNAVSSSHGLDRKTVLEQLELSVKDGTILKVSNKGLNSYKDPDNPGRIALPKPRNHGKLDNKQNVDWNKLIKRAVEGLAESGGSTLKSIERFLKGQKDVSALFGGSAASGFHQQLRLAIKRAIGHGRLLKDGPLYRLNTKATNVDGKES
Strand	E-score
ACAATGAG	-0.219
AGGTCCCG	0.152
ATGCGAGC	0.0202
ATCGAAAA	-0.0474
ACAGAACT	-0.137
CCCGACCC	0.0409
AGTCAGAA	-0.0692

Further values, each from its own experiment
Molecule	target	test	test system	setting	how to read	quantity	value
PhoQ, residues 284 288 289 292 302 303 TGYLSA	PhoP, residues 12 14 15 18 19 IQFRS (Escherichia coli, UniProt P23836)	Sort-seq, measured: YFP reporter	E. coli	PhoQ-PhoP variant library, with: 10 µM Mg2+	relative to: high Mg2+ state, higher = stronger signaling	fold induction	8.78

For quick reference, copied from above (study 3):
Strand	E-score
ACAATGAG	-0.219
AGGTCCCG	0.152
ATGCGAGC	0.0202
